# Experimental data pooled from the literature.
# Protocols differ between the studies behind these lines. “And” joins repeats or separate records; there may be more than shown. ± gives the spread as reported.
# U2AF2: U2AF2 148-342 (Homo sapiens, UniProt P26368)
# Chain of UniProt P26368 (whole entry, looked up): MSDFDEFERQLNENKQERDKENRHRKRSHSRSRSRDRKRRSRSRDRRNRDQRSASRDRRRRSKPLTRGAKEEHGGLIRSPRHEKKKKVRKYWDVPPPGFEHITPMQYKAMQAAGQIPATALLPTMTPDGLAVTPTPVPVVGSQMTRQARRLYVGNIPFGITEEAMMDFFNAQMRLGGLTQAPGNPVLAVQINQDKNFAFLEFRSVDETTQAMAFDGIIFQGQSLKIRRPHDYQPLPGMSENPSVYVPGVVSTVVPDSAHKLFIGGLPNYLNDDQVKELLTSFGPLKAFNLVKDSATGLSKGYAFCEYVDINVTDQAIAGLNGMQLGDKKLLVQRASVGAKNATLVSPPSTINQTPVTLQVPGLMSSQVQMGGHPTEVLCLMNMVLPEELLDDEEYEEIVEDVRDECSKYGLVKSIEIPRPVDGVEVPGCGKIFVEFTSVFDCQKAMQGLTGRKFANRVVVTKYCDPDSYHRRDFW
# B1: spindlin-3 (human); sequence looked up; chain MKTPFGKAAAGQRSRTGAGHGSVSVTMIKRKAAHKKHRSRPTSQPRGNIVGCRIQHGWKDGDEPLTQWKGTVLDQVPVNPSLYLIKYDGFDCVYGLELHRDERVSSLEVLPNRVASSRISDTHLAEIMVGKAVEHIFETEEGSKNEWRGMVLAQAPVMNTWFYITYEKDPVLYMYQLLDDYKDGDLRILQDSNDSPLAEREPGEVIDSLVGKQVEYAKDDGSKRTGMVIHQVEAKPSVYFIKFDDDFHIYVYDLVKTS
# B2: Protein S100-A8 (human); sequence looked up; chain MLTELEKALNSIIDVYHKYSLIKGNFHAVYRDDLKKLLETECPQYIRKKGADVWFKELDINTDGAVNFQEFLILVIKMGVAAHKKSHEESHKE
# B3: human AP2B1; sequence looked up; chain TDSKYFTTNKKGEIFELKAELNNEKKEKRKEAVKKVIAAMTVGKDVSSLFPDVVNCMQTDNLELKKLVYLYLMNYAKSQPDMAIMAVNSFVKDCEDPNPLIRALAVRTMGCIRVDKITEYLCEPLRKCLKDEDPYVRKTAAVCVAKLHDINAQMVEDQGFLDSLRDLIADSNPMVVANAVAALSEISESHPNSNLLDLNPQNINKLLTALNECTEWGQIFILDCLSNYNPKDDREAQSICERVTPRLSHANSAVVLSAVKVLMKFLELLPKDSDYYNMLLKKLAPPLVTLLSGEPEVQYVALRNINLIVQKRPEILKQEIKVFFVKYNDPIYVKLEKLDIMIRLASQANIAQVLAELKEYATEVDVDFVRKAVRAIGRCAIKVEQSAERCVSTLLDLIQTKVNYVVQEAIVVIRDIFRKYPNKYESIIATLCENLDSLDEPDARAAMIWIVGEYAERIDNADELLESFLEGFHDESTQVQLTLLTAIVKLFLKKPSETQELVQQVLSLATQDSDNPDLRDRGYIYWRLLSTDPVTAKEVVLSEKPLISEETDLIEPTLLDELICHIGSLASVYHKPPNAFVEGSHGIHRKHLPIHHGSTDAGDSPVGTTTATNLEQPQVIPSQGDLLGDLLNLDLGPPVNVPQVSSMQMGAVDLLGGGLDSLVGQSFIPSSVPATFAPSPTPAVVSSGLNDLFELSTGIGMAPGGYVAPKAVWLPAVKAKGLEISGTFTHRQGHIYMEMNFTNKALQHMTDFAIQFNKNSFGVIPSTPLAIHTPLMPNQSIDVSLPLNTLGPVMKMEPLNNLQVAVKNNIDVFYFSCLIPLNVLFVEDGKMERQVFLATWKDIPNENELQFQIKECHLNADTVSSKLQNNNVYTIAKRNVEGQDMLYQSLKLTNGIWILAELRIQPGNPNYTLSLKCRAPEVSQYIYQVYDSILKN
# B4: sequence looked up; chain SGPRTLVLLDNLNVRETHSLFFRSLKDRGFELTFKTADDPSLSLIKYGEFLYDNLIIFSPSVEDFGGNINVETISAFIDGGGSVLVAASSDIGDPLRELGSECGIEFDEEKTAVIDHHNYDISDLGQHTLIVADTENLLKAPTIVGKSSLNPILFRGVGMVADPDNPLVLDILTGSSTSYSFFPDKPITQYPHAVGKNTLLIAGLQARNNARVIFSGSLDFFSDSFFNSAVQKAAPGSQRYSQTGNYELAVALSRWVFKEEGVLRVGPVSHHRVGETAPPNAYTVTDLVEYSIVIQQLSNGKWVPFDGDDIQLEFVRIDPFVRTFLKKKGGKYSVQFKLPDVYGVFQFKVDYNRLGYTHLYSSTQVSVRPLQHTQYERFIPSAYPYYASAFSMMLGLFIFSIVFLHMKEKEKSD
Substance,target or system,assay,system,setting,how to read,measurement,result
GSGAGKETYY,"construct, MBP fusion, human SCRIB, PDZ 3-4",surface plasmon resonance,peptide,concentration not given,higher = stronger binding,normalised SPR binding response,2.5 normalised RU
CUUUGCCUU (ssRNA),U2AF2,sequencing of bound RNA,RNA,motif only,,Kd,890 nM
"clathrin heavy chain 1, human",CYB5R4 knockout human cells,"PP4 interaction, 3xFLAG-PP4C IP-MS",,concentration not given,reference: CYB5R4 KO over parental,log2 fold change,-0.43
AUUGUUUUC (ssRNA),U2AF2,sequencing of bound RNA,RNA,motif only,,Kd,3370 nM
KDECVIATEV,"construct, MBP fusion, human SCRIB, PDZ 3-4",automated holdup,"peptide, crude extract","concentration not given, uncorrected, unit not given","reference: biotin control resin, higher = stronger binding",binding intensity,0.2
milbemycin oxime,Saccharomyces cerevisiae,cell growth,"Pdr5 deleted, Cdr1 overexpressed","2^-4.966 µg/mL, added: fluconazole 10 µg/mL",,OD600,0.056 and 0.057 and 0.067
B1 (spindlin-3),CYB5R4 knockout human cells,"PP4 interaction, 3xFLAG-PP4C IP-MS",,concentration not given,reference: CYB5R4 KO over parental,log2 fold change,-0.07
Peginesatide,UT7/EPO,"tyrosine phosphorylation, LC-MS/MS phosphoproteomics, trypsin, refers to: OTC tyrosine 55",,"10 nM, 15 min, added: 10 U/mL EPO",reference: vehicle,phosphorylation level,31.1 fold
MTVCNASQRQAHAQATAVSL,H1264 lung adenocarcinoma,phage binding output/input,peptide,,reference: control phage,selectivity ratio,0.36 ± 0.21
colistin,Escherichia coli,broth microdilution,clinical isolate RKI-No_607/16,,,MIC,≤ 0.5 µg/mL
B2 (Protein S100-A8),PP6C (human),"co-immunoprecipitation, IP-MS",CYB5R4 knockout cells,concentration not given,reference: CYB5R4 knockout over parental,log2 fold change,1.19
Nisin,Bacillus subtilis,,ATCC 6633,concentration not given,,nucleoid length,1.43 µm and 1.52 µm and 1.46 µm
KPGKGSETVV,"construct, MBP fusion, human SCRIB, PDZ 3-4",automated holdup,"peptide, crude extract","concentration not given, corrected by standard peak, unit not given","reference: biotin control resin, higher = stronger binding",binding intensity,0.136
B3 (human AP2B1),PP6C (human),"co-immunoprecipitation, IP-MS",CYB5R4 knockout cells,concentration not given,reference: CYB5R4 knockout over parental,log2 fold change,-1.49
liraglutide,,,"Wistar rat, female, diet-induced obese, blood, fasted","subcutaneous, dose not given, after 4 weeks treatment",,serum cholesterol,78 ± 4.3 mg/dL
NRVDSKETEC,"construct, MBP fusion, human SCRIB, PDZ 3-4",automated holdup,"peptide, crude extract","concentration not given, corrected by standard peak, unit not given","reference: biotin control resin, higher = stronger binding",binding intensity,0.325
B4,CYB5R4 knockout human cells,"PP6 interaction, 3xFLAG-PP6C IP-MS",,concentration not given,reference: CYB5R4 KO over parental,log2 fold change,-0.93
maraviroc,,qPCR,"HIV-infected mice, somatosensory cortex","i.p., 120 mg/kg twice daily, 3 weeks post infection","reference: HIV-infected untreated mice, increase",mRNA level,1.91 fold

# Some of these lines once more:
Substance,target or system,assay,system,setting,how to read,measurement,result
KDECVIATEV,"construct, MBP fusion, human SCRIB, PDZ 3-4",automated holdup,"peptide, crude extract","concentration not given, uncorrected, unit not given","reference: biotin control resin, higher = stronger binding",binding intensity,0.2
milbemycin oxime,Saccharomyces cerevisiae,cell growth,"Pdr5 deleted, Cdr1 overexpressed","2^-4.966 µg/mL, added: fluconazole 10 µg/mL",,OD600,0.056 and 0.057 and 0.067
B1 (spindlin-3),CYB5R4 knockout human cells,"PP4 interaction, 3xFLAG-PP4C IP-MS",,concentration not given,reference: CYB5R4 KO over parental,log2 fold change,-0.07
